Experimental data gathered from unrelated publications.
Protocols differ between the studies behind these lines. Numbers after ± are the reported error. Values after ≈ are worked out from the molar mass of the structure shown.

Structure (SMILES) | assay | system | setting | how to read | measurement | result
NC12CNCCNCC(NCc3ccc(CNC(=O)CCCC(=O)NCc4ccc(-c5nncnn5)cc4)cc3)(CNCCNC1)CNCCNC2.[64Cu+2] | OLINDA dosimetry | ovaries | 48 h pretargeting interval, with: huA33-TCO pretargeting | – | mean absorbed dose | 0.0374 rad/mCi
Cc1nc(C)c(C=[N+]([O-])C(C)(C)C)nc1C | – | healthy human, both sexes, serum | oral, 1200 mg twice daily, 7 days | – | Cavg | 6780 ng/mL
O=C([O-])CN1CCN(CC(=O)[O-])CCN(CC(=O)NC[C@H]2CC[C@H](C(=O)N[C@H](Cc3cnc4ccccc4c3)C(=O)NCCCC[C@H](NC(=O)N[C@@H](CCC(=O)O)C(=O)O)C(=O)O)CC2)CCN(CC(=O)[O-])CC1.[64Cu+2] | PET/CT, OLINDA/EXM dosimetry | healthy human volunteers, gallbladder wall | – | – | absorbed dose | 0.052 mGy/MBq
NS(=O)(=O)c1ccc(N2N=C(C(F)(F)F)C(O)C2c2ccc(F)cc2F)cc1 (stereo not shown) | substrate | human liver microsomes | 20 µM, 0 to 30 min, pH 7.4 | – | metabolite formation rate | 189 pmol/min/mg
CC(C)[C@H](NC(=O)[C@@H]1CCCN1C(=O)[C@H](CCCNC(=N)N)NC(=O)[C@H](CS)NC(=O)[C@H](Cc1c[nH]c2ccccc12)NC(=O)[C@H](CCCNC(=N)N)NC(=O)[C@@H](Cc1ccccc1)NC(=O)[C@H](Cc1c[nH]cn1)NC(=O)[C@H](CCC(=O)O)NC(=O)[C@H](CS)NC(=O)[C@H](CS)NC(=O)CNC(=O)[C@@H]1CC(=O)N[C@@H](CCCNC(=N)N)C(=O)NCC(=O)N[C@@H](CC(=O)O)C(=O)N[C@H](Cc2ccc(O)cc2)C(=O)N1)C(N)=O [technetium-99m labelled] | – | female mice, B16/F1 melanoma, urine | intravenous, dose not given, 2 h, with: 10 µg NDP-MSH co-injected | – | urinary excretion | 69.6 ± 23.8%
CCCCCCCCCCCCCCCC(=O)NCCOCCOCCOCCOCCOCCOCCOCCOCCC(=O)NCCCC[C@H](NC(=O)CNC(=O)[C@@H]1CSSC[C@H](N)C(=O)N[C@@H](Cc2ccc(O)cc2)C(=O)N[C@@H]([C@@H](C)CC)C(=O)N[C@@H](CCC(N)=O)C(=O)N[C@@H](CC(N)=O)C(=O)N1)C(=O)NCC(N)=O | – | mouse, plasma | subcutaneous depot, dose not given, at least 24 h | – | steady unbound concentration | 1 nM
COC[C@@H](CC(C)C)NC(=O)c1ccc(CO)c(CO)c1 | LC-MS | human liver microsomes | 10 µM of parent drug, 60 min, pH 7.4, with: NADPH | reference: parent drug at time zero | metabolite peak area | 1.1%
C=CC(=O)Nc1cc(Nc2nccc(-c3cn(C)c4ccccc34)n2)c(OC)cc1N(C)CCN(C)C | UHPLC-MS/MS | human, plasma | oral, 80 mg daily | – | steady-state trough concentration | 205 ng/mL
C=C(c1ccc(C(=O)O)c(F)c1)c1cc2c(cc1C)C(C)(C)C=CC2(C)C | – | Sprague-Dawley rat, male | oral, 100 mg/kg, 2 h, sesame oil vehicle | – | blood cholesterol | 98 ± 9 mg/dL
CCn1c(=O)n(CCO)c(=O)c2c1nc(/C=C/c1ccc(OC)c(OC)c1)n2C | – | healthy humans, plasma | oral, 40 mg | – | metabolite to parent AUCinf ratio | 0.0513
CC(C)[C@H](NC(=O)CNC(=O)[C@H](CCC(N)=O)NC(=O)[C@H](C)N)C(=O)O | LC-MS/MS | human, male, plasma | intravenous, 20 mg/kg three times daily, day 2, first dose, 10 min infusion, geometric mean | – | Cmax | 3500 ng/mL
COCCOCCOCCOCCC(=O)NCc1cc(CNC(=O)CCOCCOCCOCCOC)cc(-c2cc3cc4nc(c(-c5ccc(CCC(=O)O)cc5)c5[nH]c(cc6nc(c(OC)c2[nH]3)CC6(C)C)cc5-c2cc(CNC(=O)CCOCCOCCOCCOC)cc(CNC(=O)CCOCCOCCOCCOC)c2)CC4(C)C)c1 | – | DMF | room temperature | – | Qy/B absorption intensity ratio | 0.75
CCCC[C@H](NC(=O)CNC(=O)CNC(=O)CN1CCN(CC(=O)O)CCN(CC(=O)O)CCN(CC(=O)O)CC1)C(=O)N[C@H]1CC(=O)NCCCC[C@@H](C(N)=O)NC(=O)[C@H](Cc2c[nH]c3ccccc23)NC(=O)[C@H](CCCNC(=N)N)NC(=O)[C@@H](Cc2ccccc2)NC(=O)[C@H](Cc2c[nH]cn2)NC1=O [gallium-67 labelled] | – | C57 mice, female, B16/F1 melanoma, urine | intravenous, 0.037 MBq, 4 h | – | urinary excretion | 87.8 ± 1.44%
O=C(NCCCN(CCCCN(CCCNC(=O)c1cccc(=O)n1[O-])C(=O)c1cccc(=O)n1[O-])C(=O)c1cccc(=O)n1[O-])c1cccc(=O)n1[O-].[89Zr+4] | radio-TLC | PBS | 1 h, pH 7.4, 37 °C, with: Cu^2+ 10-fold excess | – | intact complex | 98.2 ± 2.5%
O=c1nc(NO)ccn1[C@@H]1O[C@H](CO)[C@@H](O)[C@H]1O | RT-PCR, refers to: CYP3A18 | rat, arthritis model, liver | oral, 80 mg/kg twice daily, 5 days | reference: untreated arthritic rats | mRNA level | 3.3 fold
COc1ccc(/C=C/c2ccc(-c3ccc(C)cn3)nc2)cc1 | TCSPC | DMSO | – | – | radiative decay rate constant | 0.56 ns⁻¹
COc1cc2c(cc1OC)CN(CCCCn1ccc3cc(OCC[18F])ccc31)C2 | – | male CD-1 mouse, muscle | intravenous, 280 kBq, 15 min | – | tracer uptake | 2.72 %ID/g
CCCC[C@H](NC(C)=O)C(=O)N[C@H]1CC(=O)NCCCC[C@@H](C(=O)N[C@@H](C(=O)N2CCC[C@@H]2C(N)=O)C(C)C)NC(=O)[C@H](Cc2c[nH]c3ccccc23)NC(=O)[C@H](CCCN=C(N)N)NC(=O)[C@@H](Cc2ccc3ccccc3c2)NC(=O)[C@@H]2CCCN2C1=O | – | Beagle dog, both sexes, plasma | subcutaneous, once daily, 2.25 mg/kg, day 5 | – | Tmax | 0.0667 ± 0.0125 days
CC(C)c1cnc(-c2cc(Cl)ccc2F)cc1Nc1ccncc1C(=O)NC(CO)CO | monotherapy, refers to: blood alkaline phosphatase increased | human patients | oral, dose not given, grade 3, phase I A | – | patients with treatment-related adverse event | 0%
CCCC[C@H](NC(=O)CN1CCC(NC(=O)CN2CCN(CC(=O)O)CCN(CC(=O)O)CCN(CC(=O)O)CC2)CC1)C(=O)N[C@H]1CC(=O)NCCCC[C@@H](C(N)=O)NC(=O)[C@H](Cc2c[nH]c3ccccc23)NC(=O)[C@H](CCCNC(=N)N)NC(=O)[C@@H](Cc2ccccc2)NC(=O)[C@H](Cc2c[nH]cn2)NC1=O [gallium-68 labelled] | radio-HPLC | mouse, plasma | intravenous, 8 to 12 MBq, 5 min post injection | – | intact compound | > 96%
COC(=O)/C=C/C(=O)c1ccc(OC)cc1 | LC-MS/MS | rat plasma | 400 ng/mL, 15 days, -70 °C, long-term storage | – | recovery | 97.5 ± 9.13%
CCCCN1C(=O)c2cccc3c(NCCCCCCN4CCOCC4)ccc(c23)C1=O | – | aqueous medium | pH 6 | – | fluorescence brightness | 3900 M⁻¹ cm⁻¹

Structure (SMILES) | assay | system | setting | how to read | measurement | result
N=C(N)NCCC[C@@H]1NC(=O)[C@H](Cc2c[nH]c3ccccc23)NC(=O)[C@@H](CC2CCCCC2)NC(=O)[C@@H]2CCCN2C(=O)[C@@H](NC(=O)CCc2ccccc2)CCCNC1=O | – | C57BL/6J mouse, spinal cord | intraperitoneal, 1 mg/kg, single dose, two-compartment model | – | alpha distribution rate constant | 4.64 h⁻¹
COC(=O)c1ccc2c(c1)NC(=O)/C2=C(\Nc1ccc2c(c1)CCN2C(=O)CN1CCOCC1)c1ccccc1 | – | Sprague-Dawley rat | intravenous, 2 mg/kg | reference: liver blood flow | blood clearance | ~30%
Cc1ccc(/N=N/c2c(O)ccc3ccccc23)c(C)c1 | – | extracted rat blood QC samples | 0.5 µg/L, 12 h, room temperature, short-term stability | – | measured concentration | 0.503 µg/L
CSCOC1C(=O)C2(C)C(OCSC)CC3OCC3(OC(C)=O)C2C(OC(=O)c2ccccc2)C2(O)CC(OC(=O)C(O)C(C=C(C)C)NC(=O)OC(C)(C)C)C(C)=C1C2(C)C (stereo not shown) | – | male Sprague-Dawley rat, plasma | intravenous, 4 mg/kg | – | Vd | 40.9 L/kg
CCC/C(=C\C1=C(OC)C(=O)c2ccccc2C1=O)C(=O)NOC | – | FaSSGF | 24 h, 37 °C | – | thermodynamic solubility | 510 µg/mL (≈ 1550 µM)
CCCCCC(=O)C(=O)C(O)CO (stereo not shown) | pressure-area isotherm | lipid monolayer | – | reference: control monolayer | convergence surface pressure | ~20 mN/m
[11CH3]c1ccc2nc(C3CCC3)n(-c3ccc4[nH]ncc4c3)c2n1 | extrapolated from mouse | human male, Upper large intestine wall | – | – | absorbed dose | 5.2 µSv/MBq
CCCC[C@@H]1NC(=O)[C@@H](NC(=O)[C@H](CCC(=O)O)NC(=O)CNC(=O)CN2CCN(CC(=O)O)CCN(CC(=O)O)CCN(CC(=O)O)CC2)CCCCNC(=O)C[C@@H](C(N)=O)NC(=O)[C@H](C(C)C)NC(=O)[C@@H]2CCCN2C(=O)[C@H](CCCNC(=N)N)NC(=O)CNC(=O)[C@H](Cc2c[nH]c3ccccc23)NC(=O)[C@H](CCCNC(=N)N)NC(=O)[C@@H](Cc2ccccc2)NC(=O)[C@H](Cc2c[nH]cn2)NC(=O)[C@H](CCC(=O)O)NC1=O [gallium-67 labelled] | – | C57 mice with B16/F1 melanoma, lung | intravenous, 4 h | – | tissue uptake | 0.11 ± 0.09 %ID/g
CN(C)c1ccc2c(-c3cc(C(=O)N4CCN(CCCOc5ccc6nccc(C(=O)NCC(=O)N7CC(F)(F)C[C@H]7C#N)c6c5)CC4)ccc3C(=O)[O-])c3ccc(=[N+](C)C)cc-3oc2c1 | intravital imaging | mouse B16-F10-GFP tumour, tumour | intravenous, 1 µM, 100 µL | – | signal clearance onset time | 2 h
CC/C=C\C/C=C\C/C=C\C/C=C\C/C=C\CCCCOC(CC)C(=O)O (stereo not shown) | [14C] label | male Wistar rat, whole blood | oral, 100 mg/kg, 2 h | – | radioactivity concentration | 36.2 µg equiv/g
CCCC[C@H](NC(=O)CNC(=O)CNC(=O)CN1CCN(CC(=O)O)CCN(CC(=O)O)CCN(CC(=O)O)CC1)C(=O)N[C@H]1CC(=O)NCCCC[C@@H](C(N)=O)NC(=O)[C@H](Cc2c[nH]c3ccccc23)NC(=O)[C@H](CCCNC(=N)N)NC(=O)[C@@H](Cc2ccccc2)NC(=O)[C@H](Cc2c[nH]cn2)NC1=O [lead-203 labelled] | – | normal C57 mice, urine | intravenous, 0.056 MBq, 24 h | – | urinary excretion | 92.1 ± 2.14%
Cn1c(=O)oc2ccc(-c3ccc(CC(C#N)NC(=O)C4CNCCCO4)c(F)c3)cc21 (stereo not shown) | – | human | oral, 20 mg once daily, TEAE, multiple ascending dose | – | acne incidence | 11.1%
O=C([O-])CN1CCN(CC(=O)[O-])CCN(CC(=O)NCC2CCC(C(=O)NC(Cc3ccc4ccccc4c3)C(=O)NCCCCC(NC(=O)NC(CCC(=O)O)C(=O)O)C(=O)O)CC2)CCN(CC(=O)[O-])CC1.[44Sc+3] (stereo not shown) | PET/CT, OLINDA/EXM | human patients, liver | mean of patients | – | absorbed dose | 0.11 mSv/MBq
Cn1cc(C(N)=O)c(NC2C3CC4CC2CC(O)(C4)C3)c2ccnc1-2 (stereo not shown) | – | Japanese adults, mild hepatic impairment, plasma | oral, 150 mg single dose | – | AUC(0-t) | 563 ng·h/mL
Cc1ccc(OCC(=O)O)cc1 | – | Sprague-Dawley rat, male, plasma | oral gavage, 10 mg/kg of parent drug | reference: compound over parent drug | AUC(0-last) ratio | 3480
O=C(Nc1nccs1)C(c1cc(F)ccc1O)N1Cc2ccccc2C1=O (stereo not shown) | – | mouse plasma, high QC | 1500 ng/mL, 1.5 months, -30 °C | – | recovery | 93.3 ± 3.1%
CCCC[C@H](NC(=O)CNC(=O)CNC(=O)CN1CCN(CC(=O)O)CCN(CC(=O)O)CCN(CC(=O)O)CC1)C(=O)N[C@H]1CC(=O)NCCCC[C@@H](C(N)=O)NC(=O)[C@H](Cc2c[nH]c3ccccc23)NC(=O)[C@H](CCCNC(=N)N)NC(=O)[C@@H](Cc2ccccc2)NC(=O)[C@H](Cc2c[nH]cn2)NC1=O [copper-64 labelled] | – | female C57 mouse, B16/F1 melanoma | intravenous, 0.037 MBq, 24 h | reference: tumour over muscle | uptake ratio | 17.5
CC(C)(Sc1cc[n+]([O-])cc1-c1ccc(C#N)c2ccccc12)C(=O)OC1OC(C(=O)O)C(O)C(O)C1O (stereo not shown) | – | adult men, urine | oral, 15 mg verinurad, moderate renal impairment | reference: impaired over normal renal function | renal clearance ratio (0-72 h) | 39.5%
CCC(=O)N[C@@H](C)C(=O)OCC(=O)N[C@@H](C)C(=O)O | – | water | pH 3, 25 °C | – | depolymerization half-life | 105 days
COc1cc(NC(C)=O)c2c(c1O)-c1c(OC)c(OC)cc3c1C(C2)N(C)CC3 (stereo not shown) | – | male Wistar rat, plasma | oral, 200 mg/kg | – | Vd/F | 9.6 L/kg
COc1cc(F)ccc1-c1ncnc(Nc2cccc(C[S@@](C)(=N)=O)c2)n1 | – | male Wistar rat, plasma | oral | – | oral bioavailability | 53%

A few entries again:
Structure (SMILES) | assay | system | setting | how to read | measurement | result
O=C(Nc1nccs1)C(c1cc(F)ccc1O)N1Cc2ccccc2C1=O (stereo not shown) | – | mouse plasma, high QC | 1500 ng/mL, 1.5 months, -30 °C | – | recovery | 93.3 ± 3.1%
[11CH3]c1ccc2nc(C3CCC3)n(-c3ccc4[nH]ncc4c3)c2n1 | extrapolated from mouse | human male, Upper large intestine wall | – | – | absorbed dose | 5.2 µSv/MBq
CCCC[C@H](NC(=O)CNC(=O)CNC(=O)CN1CCN(CC(=O)O)CCN(CC(=O)O)CCN(CC(=O)O)CC1)C(=O)N[C@H]1CC(=O)NCCCC[C@@H](C(N)=O)NC(=O)[C@H](Cc2c[nH]c3ccccc23)NC(=O)[C@H](CCCNC(=N)N)NC(=O)[C@@H](Cc2ccccc2)NC(=O)[C@H](Cc2c[nH]cn2)NC1=O [gallium-67 labelled] | – | C57 mice, female, B16/F1 melanoma, urine | intravenous, 0.037 MBq, 4 h | – | urinary excretion | 87.8 ± 1.44%
